Assay results from different studies.
Each numbered part is a random draw from the data of one study; scales do not carry over between parts. Substitutions count along the parent as printed.

Set 1
Target: OGT, full length, His-tagged (human)
Method: phage display, sequencing
Sample: in vitro
Tested at: 1 µg OGT
Notes: single substitutions, 15-mer displayed peptide, unchanged parent 5.27
Baseline: input library
Reading: higher = stronger binding
Parent: peptide; GDFPVMFMPKYSIIY; partner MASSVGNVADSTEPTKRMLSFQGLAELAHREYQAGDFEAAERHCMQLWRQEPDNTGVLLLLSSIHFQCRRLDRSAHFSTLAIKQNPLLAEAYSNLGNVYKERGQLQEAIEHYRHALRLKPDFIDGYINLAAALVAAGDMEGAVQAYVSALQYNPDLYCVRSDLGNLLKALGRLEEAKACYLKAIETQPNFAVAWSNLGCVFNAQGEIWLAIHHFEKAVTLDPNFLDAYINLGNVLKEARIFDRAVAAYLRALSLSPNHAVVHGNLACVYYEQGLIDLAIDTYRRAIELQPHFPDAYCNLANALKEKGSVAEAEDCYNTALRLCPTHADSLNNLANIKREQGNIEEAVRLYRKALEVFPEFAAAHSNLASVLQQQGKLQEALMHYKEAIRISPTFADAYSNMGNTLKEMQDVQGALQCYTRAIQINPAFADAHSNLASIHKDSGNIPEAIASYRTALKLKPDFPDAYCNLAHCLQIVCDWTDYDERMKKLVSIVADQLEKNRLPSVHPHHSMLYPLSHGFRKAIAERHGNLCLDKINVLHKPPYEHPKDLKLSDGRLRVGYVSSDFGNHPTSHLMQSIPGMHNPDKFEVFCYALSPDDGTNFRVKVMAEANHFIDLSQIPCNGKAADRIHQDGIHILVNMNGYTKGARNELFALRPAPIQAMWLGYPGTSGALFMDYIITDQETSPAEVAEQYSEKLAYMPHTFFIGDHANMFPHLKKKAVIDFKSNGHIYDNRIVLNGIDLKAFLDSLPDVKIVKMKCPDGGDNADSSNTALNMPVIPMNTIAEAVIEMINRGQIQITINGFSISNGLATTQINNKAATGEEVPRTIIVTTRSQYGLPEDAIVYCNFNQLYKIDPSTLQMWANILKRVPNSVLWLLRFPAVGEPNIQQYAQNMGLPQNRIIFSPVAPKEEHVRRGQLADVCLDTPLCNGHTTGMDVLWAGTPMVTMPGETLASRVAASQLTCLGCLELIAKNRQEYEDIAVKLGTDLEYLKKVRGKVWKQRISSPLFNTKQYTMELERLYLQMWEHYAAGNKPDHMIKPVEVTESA
Change	fold enrichment [fold]
Y11Q	0.998
D2T	5.82
F3G	5.01
M8S	1.01
G1S	6.24
V5K	3.53
F7A	0.809
M6G	1.59
F3Y	4.95
Y15K	0.626
Y15H	1.38
F3V	3.81
P9H	8.17
D2R	5.17
M8P	3.57
Y11V	4.21
D2A	5.6
I13P	0.964
V5W	3.94
M8K	1.5
I14Y	1.23
P4D	9.79
P4R	7.12
I14S	1.84
V5I	7.21

Set 2
Target: CEP164, C-terminal peptide (human)
Method: DHFR complementation, deep sequencing
Sample: yeast
Notes: single substitutions, model-inferred values
Baseline: wild type
Reading: higher = weaker binding
Parent: PDZK1, PDZ domain 2 (human); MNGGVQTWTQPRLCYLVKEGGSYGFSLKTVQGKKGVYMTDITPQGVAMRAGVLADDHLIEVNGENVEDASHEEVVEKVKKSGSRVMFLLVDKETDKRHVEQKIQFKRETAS; partner HNRVKVYRF
Change	binding free energy change [kcal/mol]
G63I	0.594
F87W	2.09
V17F	0.331
Q44E	-0.109
V30W	0.115
K102R	-0.139
A110P	-0.0896
A69W	-0.22
A69K	-0.15
T94Y	-0.0538
I41D	1.5
F105Q	-0.273
N62H	0.704
M38F	0.224
A69Y	-0.305
D68R	0.0751
S81Q	0.766
A69D	-0.168
E19S	0.124
N65D	0.248
N2C	-0.0936

Set 3
Target: CCNA2, cyclin fold, Cln2 fusion (human)
Method: yeast growth competition, sequencing
Sample: yeast
Notes: strong parent motif
Baseline: not given
Reading: higher = stronger binding
Parent: CDKN1B docking peptide (human); PSACRNLFGPVDH; partner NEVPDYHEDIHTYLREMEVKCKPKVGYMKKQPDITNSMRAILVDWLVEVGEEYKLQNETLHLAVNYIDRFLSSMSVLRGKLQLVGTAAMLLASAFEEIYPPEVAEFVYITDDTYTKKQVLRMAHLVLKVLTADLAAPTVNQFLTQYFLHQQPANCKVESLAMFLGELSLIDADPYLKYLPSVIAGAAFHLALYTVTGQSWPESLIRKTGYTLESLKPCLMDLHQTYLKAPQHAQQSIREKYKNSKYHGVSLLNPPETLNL
Change	normalised enrichment score
PSACRNLFYPVDH [G9Y]	1.91
PSACRLLFGPVDH [N6L]	1.96
ESACRNLFGPVDH [P1E]	2.17
PSACRSLFGPVDH [N6S]	3.05
PSACRNLFGKVDH [P10K]	3.51
PRACRNLFGPVDH [S2R]	4.82
PWACRNLFGPVDH [S2W]	1.7
PMACRNLFGPVDH [S2M]	2.39
PSACRNLYGPVDH [F8Y]	0.263
PSACRNLFGPVHH [D12H]	3.75
PSACRELFGPVDH [N6E]	3.08
WSACRNLFGPVDH [P1W]	3.84
PSACRNLFGPVDY [H13Y]	3.97
PSACRNLFGAVDH [P10A]	3.28
PSACRNLFGFVDH [P10F]	3.53
PSACRPLFGPVDH [N6P]	0.184
PSACRNLNGPVDH [F8N]	-0.0194
PSRCRNLFGPVDH [A3R]	1.01
PSACRNLFGWVDH [P10W]	3.32
PSACRNLFGPVDT [H13T]	4.19
PSACRNLFGPGDH [V11G]	3.51
PSACRNLFIPVDH [G9I]	1.19

Set 4
Target: Interferon regulatory factor 5, full length, phosphomimetic (IRF5, Homo sapiens, UniProt Q13568-2, residues 1-514, S451D/S453D/S456D/S462D)
Method: protein-binding microarray
Form: double-stranded DNA, one strand shown
Sample: in vitro
Tested at: 940 nM top
Notes: 60-bp whole probe
Together with: salmon DNA 0.4 mg/ml
Baseline: random background probes
Reading: higher = stronger binding
Shared flanks, not repeated: GCCTAGCAC … GTCTTGATTCGCTTGACGCTGCTG
Sequence	fitted relative affinity [z-score]
TTAGGTATCCTTATCCTTTTGTGCTAG	0.541
CACGATCTCAGACTGGAGACGTGCTAG	-0.371
GACTGTATCCTACTGCTGACGTGCTAG	-0.0824
GACCTCGTCTCTATCAAAAAGTGCTAG	0.63
TATCAGTTTAATATCTAAGAGTGCTAG	1.23
CACGATATCAGTCTCGAGACGTGCTAG	1.44
TCAGATGCCTTTCTCTTACTGTGCTAG	0.621
TTGGGTATCGGTCTCGGTTAGTGCTAG	8.35
TCAGGTCTCCTTCTCCTTTAGTGCTAG	0.571
CACGGTATCGACTTTCGGGACGTGCTA	3.91
GACTGTATCGACACTGGGGACGTGCTA	1.42
TCAAGCAAAAATGATTGACTGTGCTAG	-0.371
TTAGGTATCGGGTTTCGGTGAGTGCTA	7.38
GGCGATATCAGACTGGAGACGTGCTAG	-0.936
GAGGGTTCCCTTTTCCTGACGTGCTAG	0.349
TCACCAATCAGGACTCAGACTGTGCTA	-0.0328
GCACGGCTCGTTATCCTATAGTGCTAG	-0.242
GACGGTTTCGTGACTGGGGACGTGCTA	3.45
GATGTTTTGAGTTTTCCTTCGTGCTAG	0.894
TGAGGTTTCGGGTATCGGTTAGTGCTA	7.93
TCACGTCTCCACCTGGGACTGTGCTAG	0.116
GACGATTTCGGGTTGCGAGACGTGCTA	0.661
TTAGGTCTCCTTCTCCTCTAGTGCTAG	0.38
TTAGAGCTGAGTCTCGATTAGTGCTAG	2.25
GAGGATTTCAGTCTCGAGACGTGCTAG	1.62

Set 5
Target: ABI1, truncated, D143A, DHFR fusion (Arabidopsis thaliana)
Method: DHFR PCA, deep sequencing
Sample: yeast
Notes: methotrexate growth selection, single substitutions
Together with: (+)-ABA 1.4 µM
Baseline: wild-type fitted maximum
Reading: higher = stronger binding
Parent: PYL1, truncated, DHFR fusion (Arabidopsis thaliana); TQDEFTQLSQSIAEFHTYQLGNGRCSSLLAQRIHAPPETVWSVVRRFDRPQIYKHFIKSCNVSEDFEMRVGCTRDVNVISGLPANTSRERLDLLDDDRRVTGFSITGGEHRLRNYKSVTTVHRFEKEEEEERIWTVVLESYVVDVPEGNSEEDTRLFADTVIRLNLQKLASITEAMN; partner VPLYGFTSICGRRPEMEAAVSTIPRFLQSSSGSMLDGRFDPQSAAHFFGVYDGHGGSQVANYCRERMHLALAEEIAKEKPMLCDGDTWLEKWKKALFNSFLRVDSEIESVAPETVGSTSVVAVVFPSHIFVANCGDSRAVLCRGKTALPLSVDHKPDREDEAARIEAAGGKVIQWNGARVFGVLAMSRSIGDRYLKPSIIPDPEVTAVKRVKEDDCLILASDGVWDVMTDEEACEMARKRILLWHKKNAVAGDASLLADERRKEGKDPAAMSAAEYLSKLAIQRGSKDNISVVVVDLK
Change	relative binding score
T120I	3.32%
P83K	-1.21%
L8H	6.81%
L20G	58.3%
P50Y	-0.53%
R90K	38.1%
V43R	-11.2%
R123V	13.8%
F66H	18%
G107E	12.5%
G102R	0.937%
G21Y	7.2%
V161E	2.99%
R155E	-11%
T160P	-0.874%
S59K	26.2%

Single results of other studies
Molecule	target	assay	system	conditions	scale	quantity	value
PhoQ, residues 284 288 289 292 302 303 ASHLAV	PhoP, residues 12 14 15 18 19 NHFRA (Escherichia coli, UniProt P23836)	Sort-seq, item: YFP reporter	E. coli	PhoQ-PhoP variant library, together with: 10 µM Mg2+	baseline: high Mg2+ state, higher = stronger signaling	fold induction	0.823

Repeated from above (set 5):
Change	relative binding score
T120I	3.32%
P83K	-1.21%
L8H	6.81%
L20G	58.3%
P50Y	-0.53%
R90K	38.1%
V43R	-11.2%
